Assay results gathered from unrelated publications.
Parts stem from different laboratories: compare values within a part only. Changes are numbered by the printed parent chain.

Set 1 — target: BATF3, bZIP domain (human); method: DHFR protein complementation; medium: yeast; reference: wild-type JUN-FOS pair; direction: higher = stronger binding
Notes: single substitutions, most at no-binding floor
Starting sequence: JUN, bZIP domain (human); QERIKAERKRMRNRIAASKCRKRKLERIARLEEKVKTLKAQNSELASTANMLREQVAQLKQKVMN; partner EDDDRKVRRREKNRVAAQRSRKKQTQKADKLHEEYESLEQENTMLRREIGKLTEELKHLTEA
Variant | binding fitness [natural log]
R53D | -0.247
R53T | -0.00592
E44V | 0.159
R30P | 0.351

Set 2 — method: RNA Bind-n-Seq; form: RNA; medium: in vitro; tested at: 365 nM; reference: no-protein control; direction: higher = stronger binding
Target: RNA binding protein fox-1 homolog 2, RRM domain, GST-SBP tag (RBFOX2, Homo sapiens, UniProt O43251-10, residues 100-194)
Notes: natural RNA segment, single round, ends assumed
Strand | RBNS enrichment (R)
GGGAGUUCUACAGUCCGACGAUCCAAUUGUUUUUACAGUUUUAGCCAAGUUUCUGUGAAUGCUAGAGAUUUAUACUUGAUUAUUUGUAUUUUCAUAAUGAGCUUCUUUGGGGACUCUAAAGAAGCAUUUUUGUUGGAAUUCUCGGGUGCCAA | 6.14
GGGAGUUCUACAGUCCGACGAUCAAGAAUGCUGCUUUUUAUUCUCCUAACCCUUUCAAGUGGGUGCAGACUUCUCGUUAGCAGCUGGAAGACAUUCCUCCCACACUUUUCCCUUCCUGGCCCAAGAGAGCAUCUGGAAUUCUCGGGUGCCAA | 0.617
GGGAGUUCUACAGUCCGACGAUCAAAAACUGCAGUCAUCAACAAUGAUUAAUCAGCUGUUGCAGGCAGUGUCUUAAGGAGACUGGUAGGAGGAGGCAUGGAAACCAAAAGGCCGUGUGUUUAGAAGCCUAAUUUGGAAUUCUCGGGUGCCAA | 1
GGGAGUUCUACAGUCCGACGAUCUUUCCAAGGCACGGUGUGGACGCAUCUGUCACCGACCCGAGGUGACGUGGUACUGGGAUGUGAGUGCAGUAGUGAGUCCCCCUGGGAAGGGAAGGGAGAUCACCACGUCCUGGAAUUCUCGGGUGCCAA | 0.958

Set 3 — method: RNA Bind-n-Seq; form: RNA; medium: in vitro; tested at: 20 nM; notes: 6-mer, flanks averaged, single round; added: 150 mM LiCl; reference: input library; direction: higher = stronger binding
Target: TAR DNA-binding protein 43, full length, His tag (TARDBP, Homo sapiens, UniProt Q13148, residues 1-414)
Strand | 6-mer enrichment (R)
GUGAUU | 1.07
AACUCG | 0.809
AGUACA | 0.841
UUAGUA | 1.01
AUCCGC | 0.845
CUUUUU | 1.46

Single results of other studies
Molecule | target | test | test system | conditions | how to read | measurement | value
PhoQ, residues 284 288 289 292 302 303 SSCCRF | PhoP, residues 12 14 15 18 19 DLLYY (Escherichia coli, UniProt P23836) | Sort-seq, measured: YFP reporter | E. coli | PhoQ-PhoP variant library, added: 10 µM Mg2+ | reference: high Mg2+ state, higher = stronger signaling | fold induction | 0.867
